Measurements collected from several papers.
Protocols differ between the studies behind these lines. Converted amounts (≈) assume the structure as drawn.

| SMILES | target or system | assay | test system | conditions | how to read | endpoint | value |
| --- | --- | --- | --- | --- | --- | --- | --- |
| CNc1nc(SC)nc2ccccc12 | Moraxella catarrhalis | microbial growth, broth dilution | 1502 |  |  | MIC | > 64 µM |
| CC(C)C[C@H](NC(=O)[C@H](CO)NC(=O)[C@H](CCCNC(=N)N)NC(=O)[C@H](CCCCN)NC(=O)[C@@H](NC(=O)[C@@H](NC(=O)CNC(=O)[C@H](CCCNC(=N)N)NC(=O)[C@H](Cc1c[nH]cn1)NC(=O)[C@H](Cc1c[nH]c2ccccc12)NC(=O)[C@H](Cc1ccccc1)NC(=O)[C@H](Cc1c[nH]cn1)NC(=O)[C@H](Cc1ccc(O)cc1)NC(=O)[C@@H](N)Cc1ccc(O)cc1)C(C)C)[C@@H](C)O)C(=O)N[C@@H](CO)C(=O)N1CCC[C@H]1C(=O)N[C@@H](Cc1c[nH]cn1)C(=O)N[C@@H](CCCNC(=N)N)C(=O)N1CCC[C@H]1C(=O)N[C@@H](CCCNC(=N)N)C(=O)N[C@@H](Cc1c[nH]cn1)C(=O)N[C@@H](CO)C(=O)N[C@@H](CCCNC(=N)N)C(=O)O | LPS, Escherichia coli 0111:B4 | isothermal titration calorimetry |  | pH 7, 37 °C |  | Kd | 7.09 µM |
| CC(C)C1=C(OC(=O)Cc2ccccc2)C(=O)C2=C(C=C[C@H]3C(C)(C)CCC[C@]23C)C1=O |  | oxygen radical absorbance capacity, fluorometric |  |  |  | ORAC | 0.55 Trolox equivalents |
| CCCCCc1cc(O)c2c(c1)OC(C)(C)C1CCC(C)=CC21 (centres unmarked) |  |  | rabbit, α-chymotrypsin-induced glaucoma | topical, 0.8% w/v |  | time to IOP return to baseline | ≤ 2 h |
| CC(C)C(Cl)C(NC(=O)C(O)Cc1ccccc1)C(=O)N1C(C(=O)NCCC2=CCN(C(=N)N)C2)CC2CCC(OC3OCC(OS(=O)(=O)O)C(O)C3O)CC21 (centres unmarked) | trypsin | enzyme activity |  | 20 min, pH 8, 37 °C |  | IC50 | 0.112 µM |
| CC(C)C[C@H](NC(=O)[C@H](CO)NC(=O)[C@H](CCCNC(=N)N)NC(=O)[C@H](CCCCN)NC(=O)[C@@H](NC(=O)[C@@H](NC(=O)CNC(=O)[C@H](CCCNC(=N)N)NC(=O)[C@H](Cc1c[nH]cn1)NC(=O)[C@H](Cc1c[nH]c2ccccc12)NC(=O)[C@H](Cc1ccccc1)NC(=O)[C@H](Cc1c[nH]cn1)NC(=O)[C@H](Cc1ccc(O)cc1)NC(=O)[C@@H](N)Cc1ccc(O)cc1)C(C)C)[C@@H](C)O)C(=O)N[C@@H](CO)C(=O)N1CCC[C@H]1C(=O)N[C@@H](Cc1c[nH]cn1)C(=O)N[C@@H](CCCNC(=N)N)C(=O)N1CCC[C@H]1C(=O)N[C@@H](CCCNC(=N)N)C(=O)O | LPS, Escherichia coli 0111:B4 | isothermal titration calorimetry |  | pH 7, 37 °C |  | Kd | 7.65 µM |
| C[C@H](N)C(=O)N[C@@H](CO)C(=O)N[C@@H](C)C(=O)N[C@H]1CSC(=O)[C@H](Cc2ccccc2)NC(=O)[C@H](Cc2ccc(O)cc2)NC(=O)[C@H](C)NC(=O)[C@H](C)NC1=O | AgrC-II | inhibitor, GFP reporter | Staphylococcus epidermidis, agr group-II reporter | 100 nM |  | AgrC-II activity | inhibited |
| CCCCCc1cc(OC(=O)C(NC(=O)CCC(=O)O)C(C)C)c2c(c1)OC(C)(C)C1CCC(C)=CC21 (centres unmarked) |  |  | rabbit alpha-chymotrypsin glaucoma model | dose not given |  | IOP decrease | 10% |
| COc1ccc(-n2cc(C(=O)N3C[C@]4(OC(=O)c5ccccc5NC(C)=O)CC[C@H](OC)[C@@]56[C@@H]4C[C@@H]([C@@H]35)[C@@]3(O)C[C@H](OC)[C@H]4C[C@@H]6[C@]3(O)[C@H]4OC)nn2)cc1 |  | ELISA | ICR mouse, LPS-induced lung injury, BALF | oral, 5, 10, 15 mg/kg |  | TNF-alpha level | decreased |
| CC[C@@H]1CN2CCc3c([nH]c4cccc(OC)c34)[C@@H]2C[C@@H]1/C(=C\OC)C(=O)OC | rabbit anti-mitragynine polyclonal IgG | competitive indirect ELISA |  | salt 0.17 M |  | IC50 | 0.608 µg/mL |
| CC(C)[C@]12O[C@H]1[C@@H]1O[C@]13[C@]1(O[C@H]1C[C@H]1c4c(C(=O)c5ccccc5)oc(OC(=O)c5ccccc5)c4CC[C@@]13C)[C@@H]2O | AML patient cells | viable cell count, flow cytometry |  | 24 h |  | EC50 | 0.0362 µM |
| O=C(O)CC[C@H](NC(=O)N[C@@H](CCCCNC(=O)[C@H](Cc1ccc2ccccc2c1)NC(=O)[C@H]1CC[C@H](CNC(=O)CNC(=O)CNC(=O)CNC(=O)CN2CCN(CC(=O)O)CCN(C(CCC(=O)NCCC[P+](c3ccccc3)(c3ccccc3)c3ccccc3)C(=O)O)CCN(CC(=O)O)CC2)CC1)C(=O)O)C(=O)O (some centres unmarked) [terbium-161 labelled] | LNCaP (PSMA+) |  |  | concentration not given | relative to: cell-associated | internalized activity | 50.2% |
| COc1ccc2cc1Oc1ccc(cc1)C[C@H]1c3cc(c(OC)cc3CC[N@+]1(C)CCc1c[nH]c3ccccc13)Oc1c(OC)c(OC)cc3c1[C@H](C2)[N@@+](C)(CCc1c[nH]c2ccccc12)CC3 | mixed-sequence 12-bp dsDNA | DNA binding, ethidium bromide displacement | phosphate buffer, 10% DMSO | pH 7.2, 25 °C, dsDNA 10 µM, 10 mM NaCl, with: ethidium bromide 5 µM |  | Stern-Volmer constant | 27200 M⁻¹ |
| CC[C@H](C)[C@@H]1NC(=O)[C@H](CCCCN)NC(=O)[C@H](CCCCN)NC(=O)[C@H](C)NC(=O)[C@H](C(C)C)NC(=O)[C@H](C)NC(=O)[C@H](CC(C)C)NC(=O)[C@H](CC(C)C)NC(=O)[C@H](C)NC(=O)[C@H](CCCCN)NC(=O)[C@H](CC(C)C)NC(=O)[C@H](CC(N)=O)NC(=O)[C@H](CC(C)C)NC(=O)[C@@H](N)CSSC[C@@H](C(N)=O)NC(=O)[C@H](CC(C)C)NC1=O | MDA-MB-435S | MTT |  | 24 h |  | IC50 | 13.9 µM |
| COc1ccc2cc1Oc1ccc(cc1)C[C@H]1c3cc(c(OC)cc3CC[N@+]1(C)Cc1ccc3c(c1)C(=O)c1ccccc1C3=O)Oc1c(OC)c(OC)cc3c1[C@H](C2)[N@@+](C)(Cc1ccc2c(c1)C(=O)c1ccccc1C2=O)CC3 | mixed-sequence 12-bp dsDNA | DNA binding, ethidium bromide displacement | phosphate buffer, 10% DMSO | pH 7.2, 25 °C, dsDNA 10 µM, 10 mM NaCl, with: ethidium bromide 5 µM |  | Stern-Volmer constant | 133000 M⁻¹ |
| Nc1ccc(/C=C/C(=O)N2CCc3c(oc4c(-c5ccc(F)cc5)cc(-c5ccc(C(=O)N6CCC(F)(F)CC6)cn5)cc34)C2)cn1 | MIA PaCa-2 | western blot, item: c-Myc |  | 0.05 to 5 µM, 72 h |  | protein level | decreased |
| CCC(=C(c1ccc(Cl)cc1)c1ccc(OCCN2CCOCC2)cc1)c1ccc(OC)cc1 | influenza A virus H1N1 | cytopathic effect, visual CPE | MDCK |  |  | EC50 | > 7.5 µg/mL |
| C[C@@](O)(C(F)F)[C@H](NC(=O)c1ccc(C#CC#CC2CC2)cc1)C(=O)NO | Stenotrophomonas maltophilia | agar dilution | clinical isolates |  |  | MIC90 | 1 µg/mL (≈ 2.66 µM) |
| CC/C=C\C/C=C\C/C=C\C/C=C\C/C=C\C/C=C\CCC(=O)Nc1ccn(C2OC(CO)C(O)C2(F)F)c(=O)n1 (centres unmarked) | NCI/ADR-RES | NCI60 screen |  |  |  | TGI | 14.8 µM |
| CN(C)CCc1c[nH]c2ccc(F)cc12 |  |  | mouse, prefrontal cortex | intraperitoneal, 10 mg/kg, 30 min |  | Egr1 mRNA level | increased |

Repeated from above:
| SMILES | target or system | assay | test system | conditions | how to read | endpoint | value |
| --- | --- | --- | --- | --- | --- | --- | --- |
| CC[C@H](C)[C@@H]1NC(=O)[C@H](CCCCN)NC(=O)[C@H](CCCCN)NC(=O)[C@H](C)NC(=O)[C@H](C(C)C)NC(=O)[C@H](C)NC(=O)[C@H](CC(C)C)NC(=O)[C@H](CC(C)C)NC(=O)[C@H](C)NC(=O)[C@H](CCCCN)NC(=O)[C@H](CC(C)C)NC(=O)[C@H](CC(N)=O)NC(=O)[C@H](CC(C)C)NC(=O)[C@@H](N)CSSC[C@@H](C(N)=O)NC(=O)[C@H](CC(C)C)NC1=O | MDA-MB-435S | MTT |  | 24 h |  | IC50 | 13.9 µM |
| COc1ccc2cc1Oc1ccc(cc1)C[C@H]1c3cc(c(OC)cc3CC[N@+]1(C)Cc1ccc3c(c1)C(=O)c1ccccc1C3=O)Oc1c(OC)c(OC)cc3c1[C@H](C2)[N@@+](C)(Cc1ccc2c(c1)C(=O)c1ccccc1C2=O)CC3 | mixed-sequence 12-bp dsDNA | DNA binding, ethidium bromide displacement | phosphate buffer, 10% DMSO | pH 7.2, 25 °C, dsDNA 10 µM, 10 mM NaCl, with: ethidium bromide 5 µM |  | Stern-Volmer constant | 133000 M⁻¹ |
